Experimental data from different studies.
pEC50: −log10 of the molar value.

Compound | cell line | assay | system | setting | scale | quantity | result
COC(=O)N[C@@H](C)CNc1nccc(-c2cn(C(C)C)nc2-c2cc(Cl)cc(NS(C)(=O)=O)c2F)n1 | SK-MEL-239 (BRAF V600E) | ERK phosphorylation, Western blot | – | 1 h | – | IC75 | 37 nM
C=Cc1c2[n-]c(c1C)/C=c1\[n-]/c(c(C)c1C=C)=C\c1[n-]c(c(CCC(=O)O)c1C)/C=c1\[n-]c(c(C)c1CCC(=O)O)=C2.[Sn+4] | SH-SY5Y | RNA-seq, item: PTX3 mRNA | – | 5 µM, 5 h | reference: untreated cells | fold change | 3.51
Cn1cc(-c2ccc(-c3cncc(Cl)c3N3CCC4(CCNC4=O)CC3)cc2)cn1 | COLO 205 | microarray, item: FOSB | – | concentration not given, 6 h | reference: untreated cells | fold change in expression | 2.13
CC1(C)Oc2ccc(CC3=C(c4ccc(O)cc4)C(=O)NC3=O)cc2C[C@@H]1O | RPTEC | qPCR | – | 10 µg/mL, 24 h, basal, no LPS | reference: untreated | IL-6 mRNA level | no effect
COc1cc([C@@H]2c3cc4c(cc3[C@@H](O[C@@H]3O[C@@H]5CO[C@@H](C)O[C@H]5[C@H](O)[C@H]3O)[C@H]3COC(=O)[C@H]23)OCO4)cc(OC)c1O | HepG2 spheroids | flow cytometry, item: Ki67 | – | 1.7 µM, 96 h | reference: solvent control | cell proliferation reduction | 83.8%
Cc1c(C)c2c(c(C)c1O)CCC(C)(COc1ccc(CC3SC(=O)NC3=O)cc1)O2 (centres unmarked) | HepG2 | high content imaging, item: nuclear size | – | 24 h, representative mode | – | point of departure | 37.2 µM
CCn1cc(-c2cc(Cn3ccoc3=N)cc3c2CCN([C@@H](C)c2cc(OC)ccn2)C3=O)c(C(F)(F)F)n1 | DU-4475 | cell growth, inhibitor | – | 120 h | – | pEC50 | 5.15
O=c1c2ccccc2[se]n1-c1ccccc1 | differentiated LUHMES MT1G::HiBiT-G2 neurons | cell viability | 3D neurospheres | 24 h | – | AC50 | 1800 nM
CN(C)Cc1c(C(=O)NCCOc2ccc(C(=O)NO)cc2)oc2ccccc12 | BT-16 | cell viability, MTT | – | 10 µM, 72 h | – | inhibition | 87.2%
COc1cccc2c1c(O)c(C(=O)N(C)c1ccc(C(F)(F)F)cc1)c(=O)n2C | mouse bone marrow-derived macrophages | qPCR, item: Fizz1 | – | concentration not given, added: IL-4 | – | mRNA level | decreased
CCn1c(=O)c(-c2cc[nH]n2)cc2c(C)nc(N)nc21 | RD | item: ISG20, IFIT1, OAS2, OAS3, MX1 | – | concentration not given, 22 h, 37 °C | – | ISG expression | increased
COc1cc(-c2cnc(C)n2C)ccc1Nc1ncc2cc(C)nc(NCC(C)(C)C)c2n1 | CAL-51 | cell growth | – | 72 h | – | GI50 | 0.7 µM
O=C(/C=C/C=C/C=C/C1CCCCC1)NC1=C[C@@](O)(/C=C/C=C/C=C/C(=O)NC2=C(O)CCC2=O)[C@@H]2O[C@@H]2C1=O | OMM-1 | cell growth, CellTiter-Glo | – | 78 h | – | GI50 | 17.4 µM
COc1ccc(-c2nc(N3CCOCC3)c3sc(CN(C)c4ncc(C(=O)NO)cn4)cc3n2)cn1 | BT-16 | cell viability, MTT | – | 10 µM, 72 h | – | inhibition | 94.8%
Cc1cnc2ccc3c(c2n1)N1CCC(O)N=C1N3C (centres unmarked) | BALB/c 3T3 | colony formation | – | 50 µM | – | plating efficiency | 0%
CC(C)NCC(O)c1ccc(O)c(O)c1 (centres unmarked) | mouse ventricular cardiomyocytes | – | – | dose not given, 0.031 s | – | sarcomere length | 1.8 µm
C=CC(=O)Nc1cc(Nc2nccc(-c3cn(C)c4ccccc34)n2)c(OC)cc1N(C)CCN(C)C | BT-16 | cell viability, MTT | – | 10 µM, 72 h | – | inhibition | 92.9%
CC(C)C[C@@H](C=O)NC(=O)[C@H](CC(C)C)NC(=O)[C@H](CC(C)C)NC(=O)OCc1ccccc1 | HEK293 expressing HA-FLuc | western blot | total extract | concentration not given, unit not given | reference: mock | HA-FLuc protein level | 1.08
CN1CCC(CNc2ccc3ncc(-c4cccc(OC(F)(F)F)c4)n3n2)CC1 | BT-16 | cell viability, MTT | – | 10 µM, 72 h | – | inhibition | 95.1%
CCn1cc(-c2cc(Cn3ccnc3)cc3c2CCN([C@H](c2cc(OC)ccn2)C2CC2)C3=O)c(C(F)(F)F)n1 | Kasumi 1 | cell growth, inhibitor | – | 120 h | – | pEC50 | 4.89

Excerpt of the above:
Compound | cell line | assay | system | setting | scale | quantity | result
COC(=O)N[C@@H](C)CNc1nccc(-c2cn(C(C)C)nc2-c2cc(Cl)cc(NS(C)(=O)=O)c2F)n1 | SK-MEL-239 (BRAF V600E) | ERK phosphorylation, Western blot | – | 1 h | – | IC75 | 37 nM
O=c1c2ccccc2[se]n1-c1ccccc1 | differentiated LUHMES MT1G::HiBiT-G2 neurons | cell viability | 3D neurospheres | 24 h | – | AC50 | 1800 nM
